Assay results collected from several papers.
Parts stem from different laboratories: compare values within a part only.

Block 1
Target: Interferon regulatory factor 7, full length, phosphomimetic (IRF7, Homo sapiens, UniProt Q92985, residues 1-503, S101K/S471D/S472D/S475D/S476D/S477D/S483D/S484D/S487D)
Method: protein-binding microarray
Molecule type: double-stranded DNA, one strand shown
Medium: in vitro
Tested at: 250 nM
Notes: 60-bp whole probe
Together with: salmon DNA 0.4 mg/ml
Reference: random background probes
Direction: higher = stronger binding
Constant ends, left off below: GCCTAGCACT … GTGCTAGGTCTTGATTCGCTTGACGCTGCTG
Residues (chain): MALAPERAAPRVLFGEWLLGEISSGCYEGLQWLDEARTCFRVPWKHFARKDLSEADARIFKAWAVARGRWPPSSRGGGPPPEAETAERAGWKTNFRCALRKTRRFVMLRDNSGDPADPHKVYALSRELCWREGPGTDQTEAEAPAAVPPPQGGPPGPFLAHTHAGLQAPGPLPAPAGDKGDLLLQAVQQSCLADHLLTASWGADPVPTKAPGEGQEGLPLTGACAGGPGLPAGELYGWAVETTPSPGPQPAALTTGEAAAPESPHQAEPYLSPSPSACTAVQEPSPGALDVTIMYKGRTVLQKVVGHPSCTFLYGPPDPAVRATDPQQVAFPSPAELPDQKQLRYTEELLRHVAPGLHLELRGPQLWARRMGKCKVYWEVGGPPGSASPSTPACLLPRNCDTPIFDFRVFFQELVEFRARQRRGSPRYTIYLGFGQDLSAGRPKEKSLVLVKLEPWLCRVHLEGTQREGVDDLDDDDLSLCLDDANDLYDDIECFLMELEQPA
Strand | log fluorescence [z-score]
TATGTTTCCTTTTCCTTTA | 4.49
TAGGTATCGGACTGGGTTC | 0.244
TAGGACTGCCACTGCTTTA | -0.495
CAATTCTCTGCTTGGGACT | 0.576
TAGAACTGAGTCTCGAGTA | 0.214
TAGCTCTCGGTATCGGTTA | 0.965

Block 2
Target: TAR DNA-binding protein 43, full length, His tag (TARDBP, Homo sapiens, UniProt Q13148, residues 1-414)
Method: RNA Bind-n-Seq
Molecule type: RNA
Medium: in vitro
Tested at: 20 nM
Notes: 6-mer, flanks averaged, single round
Together with: 150 mM LiCl
Reference: input library
Direction: higher = stronger binding
Strand | 6-mer enrichment (R)
CUGCCG | 0.904
GCCGCG | 1.01
GGGCCC | 1.14
UGAUCA | 0.849

Block 3
Target: Histone acetyltransferase KAT6A, both winged helices, GST fusion (KAT6A, Homo sapiens, UniProt Q92794, residues 1-181)
Method: protein binding microarray
Molecule type: double-stranded DNA, one strand shown
Medium: in vitro
Tested at: not given
Notes: 8-mer, flanks averaged, mean of 2 arrays, mostly near background
Reference: not given
Direction: higher = stronger binding
Residues (chain): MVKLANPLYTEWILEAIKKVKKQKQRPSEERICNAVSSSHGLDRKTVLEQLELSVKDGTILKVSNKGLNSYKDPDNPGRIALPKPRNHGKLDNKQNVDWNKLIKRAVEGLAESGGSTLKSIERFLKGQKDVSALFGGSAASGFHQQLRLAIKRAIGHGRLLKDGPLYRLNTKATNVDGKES
Strand | E-score
ACTCTCCT | -0.215
ACTAAACC | 0.134
ACAATTCT | -0.108
GCAGCGCA | 0.25
ACCACCGA | -0.0086
ACATATGA | -0.14
CGTGTCTA | 0.102
GATAGCCC | -0.124
GGACACGA | 0.137

Single results of other studies
Substance | target | test | test system | setting | scale | endpoint | result
PhoQ, residues 284 288 289 292 302 303 ALASRC | PhoP, residues 12 14 15 18 19 TQAIL (Escherichia coli, UniProt P23836) | Sort-seq, measured: YFP reporter | E. coli | PhoQ-PhoP variant library, together with: 10 µM Mg2+ | reference: high Mg2+ state, higher = stronger signaling | fold induction | 14.8

Repeated from above (block 1):
Strand | log fluorescence [z-score]
TAGAACTGAGTCTCGAGTA | 0.214
TAGCTCTCGGTATCGGTTA | 0.965
